Published values collected from several papers.
Each numbered part is a random draw from the data of one study; scales do not carry over between parts. “And” joins repeats or separate records; there may be more than shown.
Chain of UniProt P07949 (whole entry, unmodified, looked up): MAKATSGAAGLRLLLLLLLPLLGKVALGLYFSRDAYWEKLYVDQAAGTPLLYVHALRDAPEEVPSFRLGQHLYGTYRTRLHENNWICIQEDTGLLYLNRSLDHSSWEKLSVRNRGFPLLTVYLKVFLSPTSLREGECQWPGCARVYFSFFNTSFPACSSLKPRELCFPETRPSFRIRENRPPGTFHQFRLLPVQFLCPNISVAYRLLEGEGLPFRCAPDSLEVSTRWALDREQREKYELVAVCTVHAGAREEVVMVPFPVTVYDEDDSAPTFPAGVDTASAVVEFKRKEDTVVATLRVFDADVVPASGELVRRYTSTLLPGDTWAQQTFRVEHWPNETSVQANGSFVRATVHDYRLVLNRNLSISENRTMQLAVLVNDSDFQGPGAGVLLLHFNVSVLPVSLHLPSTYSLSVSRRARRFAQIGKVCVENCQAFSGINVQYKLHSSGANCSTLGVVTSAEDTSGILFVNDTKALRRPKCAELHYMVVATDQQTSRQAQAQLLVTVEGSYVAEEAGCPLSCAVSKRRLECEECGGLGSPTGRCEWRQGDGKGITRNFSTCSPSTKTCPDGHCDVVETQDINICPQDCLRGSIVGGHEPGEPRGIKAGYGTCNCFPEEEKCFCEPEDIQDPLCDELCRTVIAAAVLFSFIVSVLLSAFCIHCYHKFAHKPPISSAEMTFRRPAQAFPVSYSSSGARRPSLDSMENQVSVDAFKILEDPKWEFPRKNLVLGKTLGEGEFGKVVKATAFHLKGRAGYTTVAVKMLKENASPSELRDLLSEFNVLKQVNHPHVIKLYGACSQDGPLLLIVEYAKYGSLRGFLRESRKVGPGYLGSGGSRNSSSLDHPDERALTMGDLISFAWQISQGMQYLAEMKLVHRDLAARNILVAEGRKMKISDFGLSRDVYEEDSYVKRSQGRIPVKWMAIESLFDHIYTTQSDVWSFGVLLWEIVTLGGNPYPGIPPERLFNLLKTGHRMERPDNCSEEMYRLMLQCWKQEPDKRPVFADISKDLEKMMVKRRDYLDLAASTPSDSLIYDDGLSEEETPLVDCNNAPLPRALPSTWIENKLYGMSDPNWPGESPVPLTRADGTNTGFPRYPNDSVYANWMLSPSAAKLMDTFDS
Chain of UniProt O00141 (whole entry, looked up): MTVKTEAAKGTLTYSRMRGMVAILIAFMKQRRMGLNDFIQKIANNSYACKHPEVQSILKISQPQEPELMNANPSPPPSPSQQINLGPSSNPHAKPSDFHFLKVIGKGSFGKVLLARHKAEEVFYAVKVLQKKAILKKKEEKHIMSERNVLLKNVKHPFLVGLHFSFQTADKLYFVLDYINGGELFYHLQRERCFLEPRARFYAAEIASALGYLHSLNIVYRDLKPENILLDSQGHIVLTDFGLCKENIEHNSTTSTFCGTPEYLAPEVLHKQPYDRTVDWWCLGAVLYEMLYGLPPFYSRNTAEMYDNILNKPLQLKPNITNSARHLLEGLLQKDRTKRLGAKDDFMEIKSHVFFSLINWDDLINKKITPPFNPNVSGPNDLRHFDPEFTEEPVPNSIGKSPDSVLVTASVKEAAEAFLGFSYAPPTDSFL
Chain of UniProt O14936 (whole entry, looked up): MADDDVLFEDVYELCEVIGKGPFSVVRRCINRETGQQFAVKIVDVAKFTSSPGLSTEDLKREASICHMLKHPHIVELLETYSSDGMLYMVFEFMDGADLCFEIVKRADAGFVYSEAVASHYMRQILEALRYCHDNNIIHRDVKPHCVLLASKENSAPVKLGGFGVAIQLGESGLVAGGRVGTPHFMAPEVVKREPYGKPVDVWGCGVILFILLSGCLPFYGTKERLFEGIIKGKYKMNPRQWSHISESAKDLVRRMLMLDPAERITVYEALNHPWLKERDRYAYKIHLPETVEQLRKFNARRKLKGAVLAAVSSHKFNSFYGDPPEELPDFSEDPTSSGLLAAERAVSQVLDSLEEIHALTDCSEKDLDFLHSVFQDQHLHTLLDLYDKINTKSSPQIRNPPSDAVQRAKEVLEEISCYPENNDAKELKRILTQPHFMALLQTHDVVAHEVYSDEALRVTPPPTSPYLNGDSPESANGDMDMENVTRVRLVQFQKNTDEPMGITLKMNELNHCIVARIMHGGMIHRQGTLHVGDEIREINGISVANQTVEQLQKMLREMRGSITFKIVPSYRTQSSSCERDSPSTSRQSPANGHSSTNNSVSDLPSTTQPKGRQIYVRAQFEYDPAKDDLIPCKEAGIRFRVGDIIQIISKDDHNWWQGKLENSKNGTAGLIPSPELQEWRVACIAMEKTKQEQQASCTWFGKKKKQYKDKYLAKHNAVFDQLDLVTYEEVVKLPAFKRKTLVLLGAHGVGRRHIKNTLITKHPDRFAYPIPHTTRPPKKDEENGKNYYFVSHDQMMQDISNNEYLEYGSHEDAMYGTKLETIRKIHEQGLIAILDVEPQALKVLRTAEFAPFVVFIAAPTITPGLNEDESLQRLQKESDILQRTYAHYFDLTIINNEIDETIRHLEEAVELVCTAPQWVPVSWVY
Chain of UniProt Q8TD08 (whole entry, looked up): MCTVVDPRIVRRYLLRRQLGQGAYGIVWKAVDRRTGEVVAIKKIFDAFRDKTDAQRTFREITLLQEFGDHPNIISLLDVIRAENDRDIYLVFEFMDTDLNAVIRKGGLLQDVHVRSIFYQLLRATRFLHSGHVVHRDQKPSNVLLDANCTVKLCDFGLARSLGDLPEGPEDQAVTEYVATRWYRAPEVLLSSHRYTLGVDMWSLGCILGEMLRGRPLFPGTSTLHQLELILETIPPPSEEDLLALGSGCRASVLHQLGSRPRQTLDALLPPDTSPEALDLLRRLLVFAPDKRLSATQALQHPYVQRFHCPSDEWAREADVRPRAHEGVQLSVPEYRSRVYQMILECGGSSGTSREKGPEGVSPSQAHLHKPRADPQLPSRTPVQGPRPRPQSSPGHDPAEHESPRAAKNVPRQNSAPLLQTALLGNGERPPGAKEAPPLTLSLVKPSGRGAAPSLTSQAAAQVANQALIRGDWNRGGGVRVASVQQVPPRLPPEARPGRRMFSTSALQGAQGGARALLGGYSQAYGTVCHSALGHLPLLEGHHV
Chain of UniProt Q15139 (whole entry, looked up): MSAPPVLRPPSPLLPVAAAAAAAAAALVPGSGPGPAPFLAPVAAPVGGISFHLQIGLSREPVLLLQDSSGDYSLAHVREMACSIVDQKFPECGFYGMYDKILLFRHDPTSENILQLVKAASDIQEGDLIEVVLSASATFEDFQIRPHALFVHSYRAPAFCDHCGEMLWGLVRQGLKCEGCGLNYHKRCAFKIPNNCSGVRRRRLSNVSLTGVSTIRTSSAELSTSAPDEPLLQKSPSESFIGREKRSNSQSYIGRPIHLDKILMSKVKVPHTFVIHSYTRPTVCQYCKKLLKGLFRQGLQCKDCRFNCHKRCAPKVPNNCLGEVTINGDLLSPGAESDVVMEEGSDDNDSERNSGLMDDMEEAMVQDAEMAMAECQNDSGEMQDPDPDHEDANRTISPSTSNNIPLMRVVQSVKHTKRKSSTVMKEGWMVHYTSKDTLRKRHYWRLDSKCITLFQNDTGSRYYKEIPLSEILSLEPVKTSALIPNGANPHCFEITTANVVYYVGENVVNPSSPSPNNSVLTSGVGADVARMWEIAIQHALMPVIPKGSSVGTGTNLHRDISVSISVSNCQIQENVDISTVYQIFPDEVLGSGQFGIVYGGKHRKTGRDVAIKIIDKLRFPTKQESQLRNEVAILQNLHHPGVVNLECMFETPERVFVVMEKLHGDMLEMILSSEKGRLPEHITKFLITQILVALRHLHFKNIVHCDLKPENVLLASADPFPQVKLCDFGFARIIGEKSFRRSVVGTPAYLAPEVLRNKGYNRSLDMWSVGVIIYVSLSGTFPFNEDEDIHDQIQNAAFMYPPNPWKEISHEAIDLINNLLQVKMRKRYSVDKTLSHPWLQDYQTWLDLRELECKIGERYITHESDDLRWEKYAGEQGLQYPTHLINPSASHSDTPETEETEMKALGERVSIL
Chain of UniProt P41240 (whole entry, looked up): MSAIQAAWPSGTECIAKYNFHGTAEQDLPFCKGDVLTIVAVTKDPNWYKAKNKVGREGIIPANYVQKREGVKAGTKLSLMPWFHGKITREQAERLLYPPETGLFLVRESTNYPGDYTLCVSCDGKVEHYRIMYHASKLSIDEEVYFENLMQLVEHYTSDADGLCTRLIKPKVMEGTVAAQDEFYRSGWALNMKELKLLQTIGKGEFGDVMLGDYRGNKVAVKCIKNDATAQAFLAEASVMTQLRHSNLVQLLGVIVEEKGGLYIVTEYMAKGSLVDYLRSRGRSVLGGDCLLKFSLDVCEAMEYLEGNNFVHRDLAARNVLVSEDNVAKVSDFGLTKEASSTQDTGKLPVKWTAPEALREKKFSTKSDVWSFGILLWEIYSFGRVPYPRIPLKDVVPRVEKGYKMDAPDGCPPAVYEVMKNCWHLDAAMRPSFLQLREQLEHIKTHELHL

Block 1 — effect on: cell-free assay; technique: competition with immobilised ligand; concentration: 1 µM
SMILES: CN(C)C(=O)Cn1cc(-c2nc(C3(c4ccc(-c5cnc(N)nc5)cc4)CC3)no2)cn1
The remaining binding was 94% (RET (Homo sapiens, UniProt P07949)).
For Ribosomal protein S6 kinase alpha-1, N-terminal kinase domain (RPS6KA1, Homo sapiens, UniProt Q15418): remaining binding read 99%.
For PIM2 (Homo sapiens, UniProt Q9P1W9): remaining binding read 100%.
It gave 100% for remaining binding (PRKD1 (Homo sapiens, UniProt Q15139)).
For MAPK7 (Homo sapiens, UniProt Q13164): remaining binding read 97%.
RIOK2 (Homo sapiens, UniProt Q9BVS4) — remaining binding: 76%.
FYN (Homo sapiens, UniProt P06241) — remaining binding: 100%.
For MAPK14 (Homo sapiens, UniProt Q16539): remaining binding read 100%.
CASK (Homo sapiens, UniProt O14936) — remaining binding: 76%.
For NIM1K (Homo sapiens, UniProt Q8IY84): remaining binding read 83%.
It gave 96% for remaining binding (MAPK15 (Homo sapiens, UniProt Q8TD08)).
MAP3K10 (Homo sapiens, UniProt Q02779) — remaining binding: 62%.
IRAK4 (Homo sapiens, UniProt Q9NWZ3) — remaining binding: 84%.
It gave 100% for remaining binding (NEK1 (Homo sapiens, UniProt Q96PY6)).
LCK (Homo sapiens, UniProt P06239) — remaining binding: 83%.
For RET (Homo sapiens, UniProt P07949, V804L): remaining binding read 100%.

Block 2 — SMILES: Cc1ccc(S(=O)(=O)/C=C/C#N)cc1; effect on: enzyme activity; mode: inhibitor; concentration: 0.5 µM; reference: control
It gave 97.2% for remaining activity (CSK (Homo sapiens, UniProt P41240)).
The remaining activity was 93.6% (CSF1R (Homo sapiens, UniProt P07333)).
PRKCG (Homo sapiens, UniProt P05129) — remaining activity: 92.9%.
MYLK (Homo sapiens, UniProt Q15746) — remaining activity: 93.9%.
The remaining activity was 102% (PAK2 (Homo sapiens, UniProt Q13177)).
SGK1 (Homo sapiens, UniProt O00141) — remaining activity: 98.7%.

Block 3 — cell line: mouse MPNST tumor cells; technique: high-content immunofluorescence imaging; item: nuclear SOX9; concentration: 10 µM; time: 12 h; setting: mean of 2 replicates; reference: DMSO control; direction: higher = more nuclear SOX9
`Cc1cc(C(=O)Nc2cccc(C(=O)Nc3cccc(C(F)(F)F)c3)c2)on1` — result for “nuclear SOX9 intensity”: 99.4 % of DMSO.
For `OC(CCN1CCCCC1)(c1ccccc1)C1CCCCC1` (stereo not shown), “nuclear SOX9 intensity” read 111 % of DMSO and 123 % of DMSO.
Under “nuclear SOX9 intensity”, `O=C(Nc1cccc2cccnc12)c1ccc(N2C(=O)[C@@H]3[C@H](C2=O)[C@@H]2C=C[C@H]3C2)cc1` is recorded as 85.2 % of DMSO.
For `CNc1ncnc2c1ncn2C1OC(CO)C(O)C1O` (stereo not shown), “nuclear SOX9 intensity” read 111 % of DMSO.
`N[C@@H](CCNCc1ccc(Cl)cc1)C(=O)N1CCCCC1`: “nuclear SOX9 intensity” 98.6 % of DMSO.
Under “nuclear SOX9 intensity”, `CCCOc1cc(N)ccc1C(=O)OCCN(CC)CC` is recorded as 96.2 % of DMSO.

Block 4 — technique: Phase 2a trial; species: idiopathic pulmonary fibrosis patients
Structure (SMILES): CC(C)n1cnc(-c2ccc(F)cc2)c1-c1ncc(C(=O)Nc2ccc(N3CCN(C)CC3)cc2)[nH]1
item: reticulocyte count increased; 60 mg once daily, grade 2 maximum intensity — “patients with adverse events”: 0%.
item: tri-iodothyronine increased; 60 mg once daily, grade 1 maximum intensity — “patients with adverse events”: 0%.
It gave 0% for “patients with adverse events” (item: chest discomfort; 60 mg once daily, grade 4 maximum intensity).
item: reticulocyte count increased; dose not given, grade 4 maximum intensity, all arms — “patients with adverse events”: 0%.
For item: blood alkaline phosphatase increased; 30 mg once daily, grade 5 maximum intensity: “patients with adverse events” read 0%.
item: bile acids increased; dose not given, grade 4 maximum intensity, all arms — “patients with adverse events”: 0%.

Some of these lines once more (block 2):
It gave 97.2% for remaining activity (CSK (Homo sapiens, UniProt P41240)).
The remaining activity was 93.6% (CSF1R (Homo sapiens, UniProt P07333)).
